Published values of several laboratories.
Numbers after ± are the reported error.
rep papain-like protease: Replicase polyprotein 1ab, papain-like protease (rep, Severe acute respiratory syndrome coronavirus 2, UniProt P0DTD1)
rep main protease: Replicase polyprotein 1ab, main protease (rep, Severe acute respiratory syndrome coronavirus 2, UniProt P0DTD1)
UniProt P41143, sequence (whole entry, looked up): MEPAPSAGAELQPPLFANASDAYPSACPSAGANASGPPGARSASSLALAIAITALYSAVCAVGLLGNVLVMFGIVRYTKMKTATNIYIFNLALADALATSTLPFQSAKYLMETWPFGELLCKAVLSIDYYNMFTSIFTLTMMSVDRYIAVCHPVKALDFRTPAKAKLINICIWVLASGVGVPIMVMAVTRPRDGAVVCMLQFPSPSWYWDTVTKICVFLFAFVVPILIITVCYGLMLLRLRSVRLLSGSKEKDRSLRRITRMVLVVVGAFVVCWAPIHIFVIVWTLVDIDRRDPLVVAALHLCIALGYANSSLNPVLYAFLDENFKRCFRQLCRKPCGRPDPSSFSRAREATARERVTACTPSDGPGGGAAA
UniProt P41145, sequence (whole entry, looked up): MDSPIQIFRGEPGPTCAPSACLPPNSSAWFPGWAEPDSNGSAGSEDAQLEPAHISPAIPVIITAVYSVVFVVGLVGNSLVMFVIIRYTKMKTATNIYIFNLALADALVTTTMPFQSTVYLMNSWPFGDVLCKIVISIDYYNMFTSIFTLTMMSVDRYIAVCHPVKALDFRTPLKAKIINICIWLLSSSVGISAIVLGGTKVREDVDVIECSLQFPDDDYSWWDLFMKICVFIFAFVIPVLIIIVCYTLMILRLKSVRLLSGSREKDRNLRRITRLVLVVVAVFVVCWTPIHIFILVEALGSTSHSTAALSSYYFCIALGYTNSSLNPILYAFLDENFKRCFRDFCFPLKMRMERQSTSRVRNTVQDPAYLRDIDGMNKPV

| SMILES | tested on | test | system | setting | quantity | value |
| --- | --- | --- | --- | --- | --- | --- |
| Cc1ccc(OCCN(C)C)cc1C(=O)N[C@H](C)c1cc(-c2cnn(C)c2)cc(-c2cnn(C(C)C)c2)c1 | rep papain-like protease | enzyme activity, inhibitor, FRET |  |  | Ki | 47.6 nM |
| Cc1ccc(C(=O)NCc2ccc(C)c(C(=O)N[C@H](C)c3cccc4ccccc34)c2)cc1Br | rep papain-like protease | inhibitor |  |  | Ki | 7400 to 7800 nM |
| [2H]C1([2H])CC[C@@H](C[C@@H](C#N)NC(=O)[C@@H]2[C@@H]3[C@H](CN2C(=O)[C@@H](NC(=O)C(F)(F)F)C(C)(C)C)C3(C)C)C(=O)N1 | rep main protease | enzyme activity, inhibitor |  |  | Ki | 2.1 nM |
| COc1ccc(-c2cc(=O)c3c(O)cc(O)c(-c4cc(-c5cc(=O)c6c(O)cc(OC)cc6o5)ccc4OC)c3o2)cc1 | rep papain-like protease | enzyme activity, inhibitor |  |  | Ki | 23600 nM |
| C=C1CCC2C(C)(CO)C(O)CCC2(C)C1CC(SC(=S)N1CCN(Cc2cc(F)c(F)cc2F)CC1)C1=CCOC1=O (stereo not shown) | rep main protease | enzyme activity, inhibitor, fluorescence |  |  | Ki | ~48300 nM |
| C=C1CC[C@@H]2[C@](C)(COC(C)=O)[C@H](OC(C)=O)CC[C@@]2(C)[C@@H]1C[C@H](SC(=S)N1CCN(C(c2ccccc2)c2ccc(Cl)cc2)CC1)C1=CCOC1=O (stereo partly shown) | rep main protease | enzyme activity, inhibitor, fluorescence |  |  | Ki | 6800 nM |
| CC(C)CC(NC(=O)OCc1ccccc1)C(=O)NC(CC1CCNC1=O)C(=O)C(=O)NC1CC1 (stereo not shown) | rep main protease | enzyme activity, inhibitor, FRET |  |  | Ki | 36 nM |
| CC(C)C[C@H](NC(=O)[C@H](CO[C@@H]1O[C@H](CO)[C@@H](O)[C@H](O)[C@H]1O)NC(=O)[C@H](CCCCN)NC(=O)[C@H](CC(C)C)NC(=O)[C@H](C)NC(=O)[C@H](CCCCN)NC(=O)[C@H](CCC(=O)O)NC(=O)CNC(=O)[C@H](CC(C)C)NC(=O)[C@H](CC(N)=O)NC(=O)[C@@H]1CCCN1C(=O)[C@H](CC(C)C)NC(=O)[C@H](Cc1ccccc1)NC(=O)CNC(=O)[C@H](NC(=O)[C@@H](N)Cc1ccc(O)cc1)[C@H](C)O)C(N)=O | OPRD1 (Homo sapiens, UniProt P41143) | ligand displacement, radioligand |  | pH 7.5, cell membranes | Ki | 5.7 nM |
| CC(=O)Nc1ccc(-c2cnc(N3C(=O)C(Cl)C3c3cc4ccccc4nc3Cl)s2)cc1 (stereo not shown) | rep papain-like protease | papain-like protease activity, inhibitor | SARS-CoV-2 | 15 min, 37 °C, with: substrate 40 µM | Ki | 350 ± 100 nM |
| O=C(Oc1cncc(Cl)c1)c1cccs1 | rep main protease | enzyme activity, inhibitor |  |  | Ki | 1800 nM |
| CCn1ccc(-c2cc(-c3cnn(CCOC)c3)cc([C@@H](C)NC(=O)c3cc(OCCN(C)C)ccc3C)c2)n1 | rep papain-like protease | enzyme activity, inhibitor, FRET |  |  | Ki | 37.2 nM |
| CC(C)C[C@H](NC(=O)[C@H](CO[C@@H]1O[C@H](CO)[C@@H](O)[C@H](O)[C@H]1O)NC(=O)[C@H](CCCCN)NC(=O)[C@H](CC(C)C)NC(=O)C(C)(C)NC(=O)[C@H](CCCCN)NC(=O)[C@H](CCC(=O)O)NC(=O)C(C)(C)NC(=O)[C@H](CC(C)C)NC(=O)[C@H](CC(N)=O)NC(=O)[C@@H]1CCCN1C(=O)[C@H](CC(C)C)NC(=O)[C@H](Cc1ccccc1)NC(=O)CNC(=O)[C@H](NC(=O)[C@@H](N)Cc1ccc(O)cc1)[C@H](C)O)C(N)=O | OPRK1 (Homo sapiens, UniProt P41145) | ligand displacement, radioligand |  | pH 7.5, cell membranes | Ki | 6.9 nM |
| Cc1ccc(OCCN(C)C)cc1C(=O)N[C@H](C)c1cc(-c2cnn(C)c2)cc(-c2cncs2)c1 | rep papain-like protease | enzyme activity, inhibitor, FRET |  |  | Ki | 35.2 nM |
| CCCCCCCCCCCCCCCC(=O)N[C@@H](CCC(=O)NCCOCCOCCC(=O)NCCOCCOCCC(=O)NCCCC[C@H](NC(=O)[C@H](CC(=O)O)NC(=O)[C@H](CC(C)C)NC(=O)[C@H](Cc1ccc(O)cc1)NC(=O)[C@H](CCCCN)NC(=O)[C@H](CO)NC(=O)[C@H](Cc1ccc(O)cc1)NC(=O)[C@H](CC(=O)O)NC(=O)[C@H](CO)NC(=O)[C@@H](NC(=O)[C@H](Cc1ccccc1)NC(=O)[C@@H](NC(=O)CNC(=O)[C@H](CCC(N)=O)NC(=O)[C@@H](CO)NC(=O)[C@@H](N)Cc1c[nH]cn1)[C@@H](C)O)[C@@H](C)O)C(=O)N[C@@H](CCCNC(=N)N)C(=O)N[C@@H](CCCNC(=N)N)C(=O)N[C@@H](C)C(=O)N[C@@H](CCC(N)=O)C(=O)N[C@@H](CC(=O)O)C(=O)N[C@@H](Cc1ccccc1)C(=O)N[C@H](C(=O)N[C@@H](CCC(N)=O)C(=O)N[C@@H](Cc1c[nH]c2ccccc12)C(=O)N[C@@H](CC(C)C)C(=O)N[C@@H](CC(C)C)C(=O)N[C@@H](CC(N)=O)C(=O)N[C@H](C(=O)NCC(=O)NCC(=O)N1CCC[C@H]1C(=O)N[C@@H](CO)C(=O)N[C@@H](CO)C(=O)NCC(=O)N[C@@H](C)C(=O)N1CCC[C@H]1C(=O)N1CCC[C@H]1C(=O)N1CCC[C@H]1C(=O)N[C@@H](CO)C(N)=O)[C@@H](C)O)C(C)C)C(=O)O |  | measured: CK | rhesus monkey, male | subcutaneous, 60 µg/kg once daily, 28 days | serum enzyme activity | 129 ± 47 U/L |
| Cc1ccc(OCCN(C)C)cc1C(=O)N[C@H](C)c1cc(-c2cccs2)cc(-c2ccc(CN)s2)c1 | rep papain-like protease | enzyme activity, inhibitor, FRET |  |  | Ki | 75.5 nM |
| COc1ccc(-c2cc(=O)c3c(O)cc(O)c(-c4cc(-c5cc(=O)c6c(O)cc(OC)cc6o5)ccc4OC)c3o2)cc1 | rep main protease | enzyme inactivation, inactivator, inactivation kinetics |  | 37 °C | Ki | 7590 nM |

A few entries again:
| SMILES | tested on | test | system | setting | quantity | value |
| --- | --- | --- | --- | --- | --- | --- |
| CCCCCCCCCCCCCCCC(=O)N[C@@H](CCC(=O)NCCOCCOCCC(=O)NCCOCCOCCC(=O)NCCCC[C@H](NC(=O)[C@H](CC(=O)O)NC(=O)[C@H](CC(C)C)NC(=O)[C@H](Cc1ccc(O)cc1)NC(=O)[C@H](CCCCN)NC(=O)[C@H](CO)NC(=O)[C@H](Cc1ccc(O)cc1)NC(=O)[C@H](CC(=O)O)NC(=O)[C@H](CO)NC(=O)[C@@H](NC(=O)[C@H](Cc1ccccc1)NC(=O)[C@@H](NC(=O)CNC(=O)[C@H](CCC(N)=O)NC(=O)[C@@H](CO)NC(=O)[C@@H](N)Cc1c[nH]cn1)[C@@H](C)O)[C@@H](C)O)C(=O)N[C@@H](CCCNC(=N)N)C(=O)N[C@@H](CCCNC(=N)N)C(=O)N[C@@H](C)C(=O)N[C@@H](CCC(N)=O)C(=O)N[C@@H](CC(=O)O)C(=O)N[C@@H](Cc1ccccc1)C(=O)N[C@H](C(=O)N[C@@H](CCC(N)=O)C(=O)N[C@@H](Cc1c[nH]c2ccccc12)C(=O)N[C@@H](CC(C)C)C(=O)N[C@@H](CC(C)C)C(=O)N[C@@H](CC(N)=O)C(=O)N[C@H](C(=O)NCC(=O)NCC(=O)N1CCC[C@H]1C(=O)N[C@@H](CO)C(=O)N[C@@H](CO)C(=O)NCC(=O)N[C@@H](C)C(=O)N1CCC[C@H]1C(=O)N1CCC[C@H]1C(=O)N1CCC[C@H]1C(=O)N[C@@H](CO)C(N)=O)[C@@H](C)O)C(C)C)C(=O)O |  | measured: CK | rhesus monkey, male | subcutaneous, 60 µg/kg once daily, 28 days | serum enzyme activity | 129 ± 47 U/L |
